{"data": "Experimental data pooled from the literature", "note": "Parts stem from different laboratories: compare values within a part only."}
{"data": "Block 1", "target": "RING finger protein unkempt homolog, zinc fingers 1-6, GST-SBP tag (UNK, Homo sapiens, UniProt Q9C0B0, residues 30-357)", "technique": "RNA Bind-n-Seq", "form": "RNA", "matrix": "in vitro", "tested at": "not given", "notes": "RNA with constant flanks, human and mouse sites, ends assumed", "baseline": "input RNA pool", "reading": "higher = stronger binding", "all sequences stand within": "GGGAGUUCUACAGUCCGACGAUC … CAACAGAGGAUUGAGCAUCA", "UniProt Q9C0B0, sequence (30-357, looked up)": "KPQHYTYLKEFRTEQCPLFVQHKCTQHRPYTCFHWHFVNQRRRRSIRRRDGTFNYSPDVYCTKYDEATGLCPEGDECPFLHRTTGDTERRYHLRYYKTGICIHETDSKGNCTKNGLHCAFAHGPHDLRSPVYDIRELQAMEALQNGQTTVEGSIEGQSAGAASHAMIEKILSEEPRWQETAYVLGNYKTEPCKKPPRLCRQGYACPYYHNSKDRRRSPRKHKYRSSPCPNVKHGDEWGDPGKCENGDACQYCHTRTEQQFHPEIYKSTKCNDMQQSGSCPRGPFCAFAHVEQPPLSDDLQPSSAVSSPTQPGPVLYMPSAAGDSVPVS"}
{"Strand": "AAGAAUCUGAUUGAAAGCAUGCAAAUAAAUGGGUCAGUGUUGAAGAAUGGCUCCCUGACAAAUCAUUUCUCUUUUGAAAAAAAAAAGGCCAGAGUGGCUGUCUUAAUAUCUGGAACAGGA", "bound/input enrichment [ratio]": 0.164}
{"Strand": "UGGCGGCGGCUUUGGCUCUGAGGGACAGGGGUAGUGUUCCUGGUUUUGGUGGGGUUUGCCUUUAGUUUAAUUUUCCUUUUCUAGCUUCCCUUUGCCGGCUGGUGCGUACGUUGUAGUCCC", "bound/input enrichment [ratio]": 9}
{"Strand": "GGAUACGGCAACCCCCGGAACUCACCAGGCCUGCUGGUCUCACCUGGUAACCUGAACAAGAAUAUACAAGCCAAAUCUCCUCCCCCUAUGAAUCUAGGAAUGAAUAAUCGUAAGCCAGAU", "bound/input enrichment [ratio]": 0.72}
{"Strand": "GAUGGAUUUUACUUUUCAACAACAUAUGACUUGACUCAUACUUUGCAGCGACUAUCUAACACGAGUCCAGAAUUCCAAGAAAUGAGUCUCUUAGAAAGGGCAGAUCAGCGGUUUGUAUGG", "bound/input enrichment [ratio]": 0.201}
{"Strand": "UCCCCUCUGAACCCCAUAUCUUCUGUUUCAUAAUGCAGAAGUAUUCUUUUCAAUUAUAUUGUUAGUGGACUUGUUUUAAUUUUAGAGAAACUUUGAGUACAGAUACUGUGAGCUUACAUU", "bound/input enrichment [ratio]": 17.3}
{"Strand": "CCUGAGCUAUUCACCAGAAAGGACCUUGGAAGCACGGAGGAUGGGGAUGGCACUGAUGACUUUUUGACAGACAAAGAGGAUGAGAAGGCAAAGCCCCCAAGAGAGAAGGCCACUGAUGAG", "bound/input enrichment [ratio]": 0.122}
{"Strand": "UUGUGCUGAUUUUUGGUGAUCAGACCUCAGCUCCCUUAAUACUGCCCUUUUUCCUUUAAGAGAUUUCAUGUGUGCACAGAGAGGCCACCCUUUUCAGGACUGUGCAUUUUCAGGUUUGUG", "bound/input enrichment [ratio]": 0.195}
{"Strand": "CUUGAACCUAACAAGUCCAUCUUCAAGCAAAUGAAAACUCAUCCACCAUACACCAUGUGCUUUAGAGUGAAAUUCUACCCACAUGAACCCUUGAAGAUUAAAGAAGAGCUCACAAGAUAC", "bound/input enrichment [ratio]": 0.195}
{"data": "Block 2", "target": "Sal-like protein 4, full length isoform B (SALL4, Homo sapiens, UniProt Q9UJQ4-2, residues 1-616)", "technique": "universal PBM", "form": "double-stranded DNA, one strand shown", "matrix": "in vitro", "tested at": "not given", "notes": "8-mer, flanks averaged, mean of replicates", "reading": "higher = stronger binding"}
{"Strand": "CGCGGCCC", "E-score": -0.403}
{"Strand": "CACGGTAA", "E-score": -0.0301}
{"Strand": "AATTCAGG", "E-score": 0.126}
{"Strand": "AATAACAA", "E-score": 0.341}
{"Strand": "GACTGTTA", "E-score": 0.0731}
{"Strand": "AACTAATG", "E-score": 0.239}
{"Strand": "GCACCAAA", "E-score": 0.0983}
{"Strand": "ACGCGGAA", "E-score": -0.124}
{"Strand": "GTATTTTA", "E-score": 0.317}
{"Strand": "TGCGGGAA", "E-score": -0.153}
{"Strand": "ACGCCGCC", "E-score": -0.353}
{"Strand": "CTTCAACA", "E-score": 0.156}
{"Strand": "TACTGGCA", "E-score": 0.12}
{"Strand": "CATAGAGA", "E-score": 0.152}
{"Strand": "AACGCTCG", "E-score": -0.131}
{"Strand": "ATCCCCGA", "E-score": -0.0127}
{"Strand": "CCAGGGGA", "E-score": -0.238}
{"Strand": "CTCTACGA", "E-score": 0.052}
{"Strand": "CAGGTGGC", "E-score": -0.182}
{"Strand": "ATTGACCG", "E-score": 0.00509}
{"Strand": "GAGACGCA", "E-score": -0.184}
{"Strand": "ACGCTGGC", "E-score": -0.232}
{"data": "Block 3", "target": "Interferon regulatory factor 7, full length, phosphomimetic (IRF7, Homo sapiens, UniProt Q92985, residues 1-503, S471D/S472D/S475D/S476D/S477D/S483D/S484D/S487D)", "technique": "protein-binding microarray", "form": "double-stranded DNA, one strand shown", "matrix": "in vitro", "tested at": "2200 nM top", "notes": "60-bp whole probe", "added": "salmon DNA 0.4 mg/ml", "baseline": "random background probes", "reading": "higher = stronger binding", "all sequences stand within": "GCCTAGCAC … GTCTTGATTCGCTTGACGCTGCTG", "UniProt Q92985, sequence (whole entry, unmodified, looked up)": "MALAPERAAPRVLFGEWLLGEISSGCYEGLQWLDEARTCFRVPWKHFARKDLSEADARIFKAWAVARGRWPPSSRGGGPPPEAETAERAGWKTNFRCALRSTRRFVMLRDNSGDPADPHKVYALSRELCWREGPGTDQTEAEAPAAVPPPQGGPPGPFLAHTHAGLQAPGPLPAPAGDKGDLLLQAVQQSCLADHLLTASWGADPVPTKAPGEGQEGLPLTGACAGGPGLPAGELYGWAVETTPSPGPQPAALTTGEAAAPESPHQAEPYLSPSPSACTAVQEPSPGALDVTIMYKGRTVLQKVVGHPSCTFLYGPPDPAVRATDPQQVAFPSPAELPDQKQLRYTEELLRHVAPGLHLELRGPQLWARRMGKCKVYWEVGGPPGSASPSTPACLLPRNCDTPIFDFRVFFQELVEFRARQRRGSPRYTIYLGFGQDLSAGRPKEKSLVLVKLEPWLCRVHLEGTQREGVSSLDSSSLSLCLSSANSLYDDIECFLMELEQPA"}
{"Strand": "TTAGGTTCCGGTTTAGGTTAGTGCTAG", "fitted relative affinity": "3.83 z-score"}
{"Strand": "TCACCACCCACTCTGGCACTGTGCTAG", "fitted relative affinity": "1.37 z-score"}
{"Strand": "TTAGGTATCGACTTTCGGTCAGTGCTA", "fitted relative affinity": "2.85 z-score"}
{"Strand": "GACGGTTCCCTTTTTCTGACGTGCTAG", "fitted relative affinity": "2.29 z-score"}
{"Strand": "GACGATCTCAGATTCGAGACGTGCTAG", "fitted relative affinity": "0.616 z-score"}
{"Strand": "TATGTTCCCTATTTAAGACCGTGCTAG", "fitted relative affinity": "1.68 z-score"}
{"Strand": "TTAGAACTGGGGTATCGACTAGTGCTA", "fitted relative affinity": "0.0217 z-score"}
{"Strand": "TTAGGTTTCGACTATCGATTAGTGCTA", "fitted relative affinity": "3.04 z-score"}
{"Strand": "TAAGGTATCCTACTGCTTTAGTGCTAG", "fitted relative affinity": "0.415 z-score"}
{"Strand": "GACGGTCTCCTTATCGTGACGTGCTAG", "fitted relative affinity": "0.667 z-score"}
{"Strand": "GACGGTATCCTTATTCTGACGTGCTAG", "fitted relative affinity": "0.858 z-score"}
{"Strand": "ATTTATTTACTCTCTACATGGGTGCTA", "fitted relative affinity": "1.02 z-score"}
{"Strand": "GACGGTTTCGGTACTGGGGACGTGCTA", "fitted relative affinity": "5.59 z-score"}
{"Strand": "GACGGTATCCTACTGCTGAGGTGCTAG", "fitted relative affinity": "0.333 z-score"}
{"Strand": "GTCGGTTCCGGTTTCGGGACGTGCTAG", "fitted relative affinity": "6.29 z-score"}
{"Strand": "TCAACACTCACCATGGCACTGTGCTAG", "fitted relative affinity": "0.545 z-score"}
{"Strand": "TTAGGACTGCTACTGCTTGAGTGCTAG", "fitted relative affinity": "-0.239 z-score"}
{"Strand": "GACGGTATCGGACTGGGCACGTGCTAG", "fitted relative affinity": "-0.585 z-score"}
{"Strand": "AGTTCTCTGAAGACTCTCTTGGTGCTA", "fitted relative affinity": "0.297 z-score"}
{"data": "Block 4", "target": "RNA binding protein fox-1 homolog 2, RRM domain, GST-SBP tag (RBFOX2, Homo sapiens, UniProt O43251-10, residues 100-194)", "technique": "RNA Bind-n-Seq", "form": "RNA", "matrix": "in vitro", "tested at": "365 nM", "notes": "natural RNA segment, single round, ends assumed", "baseline": "no-protein control", "reading": "higher = stronger binding", "all sequences stand within": "GGGAGUUCUACAGUCCGACGAUC … UGGAAUUCUCGGGUGCCAA", "Residues (chain)": "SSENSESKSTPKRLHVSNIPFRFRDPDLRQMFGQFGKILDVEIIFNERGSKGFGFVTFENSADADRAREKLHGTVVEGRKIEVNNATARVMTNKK"}
{"Strand": "GCACUUUUGGCUAAAAGUGCGAAUGGAACAUUUUUAGUUGUAGUCUGGGGAAGAAAAGUUAAUGAGGUUUUAAAAAUCAGGUCUUGUCGUGUGGGGAGCUUGCUCCCCCA", "RBNS enrichment (R)": 0.592}
{"Strand": "UUUUGAUCUGUAAUUUCUUCUCUAAAACUGCUGCAUCUGGUACAGUAGACUGUGGAAGGUGUUGAUUAUGUUUCCUCUGGGGCCUGGUAGGAUGCUAAUCCCUAGAGCAG", "RBNS enrichment (R)": 0.734}
{"Strand": "UCCUGUUUAUUAGAGAGUAUGCUAAUAAAAGUCCUUGUAAUAGCUCACAGCCACCUAAGUGCGCGGUGUUUUGUUGUUUGACUGUGUUAGAGAAGUUUGAAUGUUUGUGU", "RBNS enrichment (R)": 3.32}
{"Strand": "UUUUAGUUAAAUUGAUGCACUACACUUUUGAUGUUUGAAGUUACAAACCUGUAAUUUUUUUGUAAAGGAAAUAAUUGCCAAAUACCUAGGCCCAUUGCUGACGAUUAGUU", "RBNS enrichment (R)": 0.573}
{"Strand": "AGGGCAGCACUGGGAAGCUGGAGUGCUGCUUGUGCCUCCCUUCCCAGUGGGCUGUGUUGACUGCUGCUCCCCACCCCUACCGAUGGUCCCAGGAAGCAGGGAGAGUUGGG", "RBNS enrichment (R)": 0.903}
{"Strand": "AGGACUGGGAGUGAGGGAGCCAGAGGGAGCAGCUCCCCCACCCAUGGCAUCUCUCGCCUCCCUCGCUCGUCUCAGCCCAGCCCUGGAAGACUGAGAAUGUUCCCCCAAAU", "RBNS enrichment (R)": 0.517}
{"Strand": "AAGCAAACCUAGAGAAUCCCAUGCGACUUGGGUAGCCUUCAGAGACCAGGCGCUUGAUUGGGUGUUCAGUAUGGAGUAGAUGAAGUGCGUAUUUAUUUAAGGCGAAAGCU", "RBNS enrichment (R)": 0.725}
{"Strand": "AGGUUCCUAUCAGUCCAUAUAAACUCACUGACCAUAUGGUCAGCCUGGACCGGCCUUCUCAGAUGGCCGAAGCAGAUCCAACAUUAUCUUCCAUCUGUUUCCUUCCAUUU", "RBNS enrichment (R)": 0.189}
{"note": "Some of these lines once more (block 2):"}
{"Strand": "CATAGAGA", "E-score": 0.152}
{"Strand": "GACTGTTA", "E-score": 0.0731}
{"Strand": "AATTCAGG", "E-score": 0.126}
{"Strand": "ACGCCGCC", "E-score": -0.353}
{"Strand": "TGCGGGAA", "E-score": -0.153}
{"Strand": "ATCCCCGA", "E-score": -0.0127}
{"Strand": "GAGACGCA", "E-score": -0.184}
{"Strand": "CACGGTAA", "E-score": -0.0301}
{"Strand": "CCAGGGGA", "E-score": -0.238}
